Measured values collected from several papers.
Parts stem from different laboratories: compare values within a part only. Values joined by “and” are separate records of one study, mostly repeats; a detail may differ.

Sample 1
Target: Sal-like protein 4, full length isoform B (SALL4, Homo sapiens, UniProt Q9UJQ4-2, residues 1-616)
Technique: universal PBM
Molecule type: double-stranded DNA, one strand shown
Medium: in vitro
Concentration: not given
Notes: 8-mer, flanks averaged, mean of replicates
Reading: higher = stronger binding
Target sequence (chain): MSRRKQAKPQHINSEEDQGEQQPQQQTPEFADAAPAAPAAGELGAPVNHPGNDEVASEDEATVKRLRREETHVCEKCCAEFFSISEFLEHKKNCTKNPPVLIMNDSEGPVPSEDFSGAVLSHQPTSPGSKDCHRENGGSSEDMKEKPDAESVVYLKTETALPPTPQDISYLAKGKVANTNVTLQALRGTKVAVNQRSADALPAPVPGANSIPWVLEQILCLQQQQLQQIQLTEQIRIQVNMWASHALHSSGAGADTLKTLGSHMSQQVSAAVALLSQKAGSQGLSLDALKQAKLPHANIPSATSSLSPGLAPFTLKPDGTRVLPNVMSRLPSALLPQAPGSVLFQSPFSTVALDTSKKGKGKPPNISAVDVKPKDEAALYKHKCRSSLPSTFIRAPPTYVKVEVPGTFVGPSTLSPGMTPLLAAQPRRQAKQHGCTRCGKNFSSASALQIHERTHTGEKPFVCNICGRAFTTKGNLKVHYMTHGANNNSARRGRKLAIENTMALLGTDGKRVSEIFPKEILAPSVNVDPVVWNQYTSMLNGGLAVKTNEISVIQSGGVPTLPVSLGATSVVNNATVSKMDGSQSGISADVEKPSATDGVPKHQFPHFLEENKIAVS
Oligonucleotide | E-score
AGTCGGAC | -0.189
GTGATGAA | 0.0822
GGTCAGCA | -0.111
ACCTGACC | -0.151

Sample 2
Target: Histone acetyltransferase KAT6A, both winged helices, GST fusion (KAT6A, Homo sapiens, UniProt Q92794, residues 1-181)
Technique: protein binding microarray
Molecule type: double-stranded DNA, one strand shown
Medium: in vitro
Concentration: not given
Notes: 8-mer, flanks averaged, mean of 2 arrays, mostly near background
Reference: not given
Reading: higher = stronger binding
Target sequence (chain): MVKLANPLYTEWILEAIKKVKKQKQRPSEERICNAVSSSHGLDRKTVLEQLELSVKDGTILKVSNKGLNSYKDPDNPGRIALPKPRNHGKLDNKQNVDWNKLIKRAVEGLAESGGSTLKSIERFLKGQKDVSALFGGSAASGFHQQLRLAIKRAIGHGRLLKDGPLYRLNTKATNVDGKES
Oligonucleotide | E-score
GACAATGC | -0.0318
CAAGTGTG | -0.197
AATAATAC | -0.0699

Sample 3
Target: Interferon regulatory factor 7, full length, phosphomimetic (IRF7, Homo sapiens, UniProt Q92985, residues 1-503, S471D/S472D/S475D/S476D/S477D/S483D/S484D/S487D)
Technique: protein-binding microarray
Molecule type: double-stranded DNA, one strand shown
Medium: in vitro
Concentration: 2200 nM top
Notes: 60-bp whole probe
Together with: salmon DNA 0.4 mg/ml
Reference: random background probes
Reading: higher = stronger binding
All sequences stand within: GCCTAGCAC … GTCTTGATTCGCTTGACGCTGCTG
Construct (chain): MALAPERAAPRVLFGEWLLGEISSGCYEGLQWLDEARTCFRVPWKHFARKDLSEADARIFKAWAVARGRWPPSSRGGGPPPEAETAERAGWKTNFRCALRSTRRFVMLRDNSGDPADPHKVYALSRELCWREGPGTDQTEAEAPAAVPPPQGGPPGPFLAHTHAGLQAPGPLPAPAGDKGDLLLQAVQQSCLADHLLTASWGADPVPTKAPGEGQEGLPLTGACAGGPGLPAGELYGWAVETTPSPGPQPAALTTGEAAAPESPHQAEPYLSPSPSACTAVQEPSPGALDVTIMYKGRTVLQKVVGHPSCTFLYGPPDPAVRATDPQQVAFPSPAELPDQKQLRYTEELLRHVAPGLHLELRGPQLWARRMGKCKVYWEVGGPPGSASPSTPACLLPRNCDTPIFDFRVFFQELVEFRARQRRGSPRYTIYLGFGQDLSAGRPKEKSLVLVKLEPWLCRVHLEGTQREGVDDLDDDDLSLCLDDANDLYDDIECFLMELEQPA
Oligonucleotide | fitted relative affinity [z-score]
TTAGAACTGAGTTTCGATTCGTGCTAG | 8.91
TCATTTATGCACTCTCTAACTGTGCTA | 1.44
TTAGATCTCAGTATCAATTAGTGCTAG | 0.000868
GACGGTCTCAGTTTCGAGACGTGCTAG | 3.39
TCAACCATCTAGTTCTGACTGTGCTAG | 0.692

Other studies, line by line
Substance | target | assay | system | conditions | how to read | quantity | result
PhoQ, residues 284 288 289 292 302 303 TNASYF | PhoP, residues 12 14 15 18 19 LWHCS (Escherichia coli, UniProt P23836) | Sort-seq, measured: YFP reporter | E. coli | PhoQ-PhoP variant library, together with: 10 µM Mg2+ | reference: high Mg2+ state, higher = stronger signaling | fold induction | 9.26 and 7.93

Excerpt of the above (sample 2):
Oligonucleotide | E-score
GACAATGC | -0.0318
